Experimental data gathered from unrelated publications.
Numbers after ± are the reported error.
Target: Cytochrome P450 3A4 (CYP3A4, Homo sapiens, UniProt P08684)
Sequence of UniProt P08684 (whole entry, looked up): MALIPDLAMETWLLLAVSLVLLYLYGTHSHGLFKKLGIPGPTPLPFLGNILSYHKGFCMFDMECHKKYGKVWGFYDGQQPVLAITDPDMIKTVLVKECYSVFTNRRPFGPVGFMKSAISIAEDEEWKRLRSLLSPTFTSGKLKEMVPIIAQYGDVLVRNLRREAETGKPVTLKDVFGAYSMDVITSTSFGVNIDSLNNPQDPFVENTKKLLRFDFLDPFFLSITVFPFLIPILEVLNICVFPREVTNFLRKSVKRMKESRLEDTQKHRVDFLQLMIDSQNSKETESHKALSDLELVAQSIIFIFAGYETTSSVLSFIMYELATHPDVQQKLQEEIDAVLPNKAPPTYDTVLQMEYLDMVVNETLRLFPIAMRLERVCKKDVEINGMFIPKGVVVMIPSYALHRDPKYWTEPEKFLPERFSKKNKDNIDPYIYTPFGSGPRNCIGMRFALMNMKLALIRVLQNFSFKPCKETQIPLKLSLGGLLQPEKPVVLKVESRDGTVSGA

Compound	test	test system	conditions	scale	endpoint	result
O=C1Cc2cc(CCN3CCN(c4nsc5ccccc45)CC3)c(Cl)cc2N1	inhibitor		10 µM, pH 7.4		inhibition	33%
N=c1c2c(-c3ccccc3)c(-c3ccccc3)n(Cc3ccccc3)c2ncn1[C@H]1CC[C@H](O)CC1	recombinant CYP3A4		concentration not given, pH 7.4		compound converted	30%
Cc1ncc2n1-c1ccc(Cl)cc1C(c1ccccc1F)=NC2		human, plasma	oral, 2 mg, day 1, alone, geometric mean		CL/F	96.5 L/h
CCC[C@@](N)(CO)CCc1ccc(OCCCCCC(C)C)cc1	enzyme activity, inhibitor		with: midazolam		IC50	> 50 µM
CC(=O)C(C)n1ncn(-c2ccc(N3CCN(c4ccc(OC[C@H]5CO[C@](Cn6cncn6)(c6ccc(Cl)cc6Cl)O5)cc4)CC3)cc2)c1=O (some centres unmarked)	inhibitor	human liver microsomes	with: midazolam		IC50	0.009 µM
CSc1ccccc1C(=O)NCCn1cc(C(=O)NCc2cccc(C)n2)c(=O)c2cc3c(cc21)OC(F)(F)O3	enzyme activity, inhibitor	human liver microsomes	20 min, no NADPH preincubation, with: midazolam 5 µM		IC50	> 100 µM
CC(C)CC(=O)OC[C@H]1O[C@@](C#N)(c2ccc3c(N)ncnn23)[C@H](O)[C@@H]1O	metabolic stability	recombinant enzyme	1 µM		half-life	2.18 ± 0.0307 min
Cc1ncc2n1-c1ccc(Cl)cc1C(c1ccccc1F)=NC2O (centres unmarked)		human, plasma	2 mg, alone, arithmetic mean		Cmax	0.434 ng/mL
CC(=O)c1c(C)c2cnc(Nc3ccc(C4CCN(CCS(C)(=O)=O)CC4)cn3)nc2n(C2CCCC2)c1=O	substrate	recombinant enzyme	time not given	relative to: initial	remaining compound	21.8%
CNCCN1C(=O)[C@H](OC(C)=O)[C@H](c2ccc(OC)cc2)Sc2ccccc21	inactivator				kinact	0.036 ± 0.001 min⁻¹
CSc1ccccc1C(=O)NCCn1cc(C(=O)NCc2cccc(C)n2)c(=O)c2cc3c(cc21)OCO3	enzyme activity, inhibitor	human liver microsomes	20 min, 30 min NADPH preincubation, with: midazolam 5 µM		IC50	8.61 µM

For quick reference, copied from above:
Compound	test	test system	conditions	scale	endpoint	result
CCC[C@@](N)(CO)CCc1ccc(OCCCCCC(C)C)cc1	enzyme activity, inhibitor		with: midazolam		IC50	> 50 µM
